Experimental data collected from several papers.
Each numbered part is a random draw from the data of one study; scales do not carry over between parts.

Series 1
Target: Fragile X messenger ribonucleoprotein 1, C-terminal low-complexity region (Fmr1, Mus musculus, UniProt P35922)
Method: RNA Bind-n-Seq
Molecule type: RNA
Sample: in vitro
Concentration: 200 nM
Notes: whole 134-nt RNA, ends assumed
With: 150 mM KCl
Reference: input library
Direction: higher = stronger binding
Constant ends, left off below: GGGAGUUCUACAGUCCGACGAUC … UGGAAUUCUCGGGUGUCAAGG
| Strand | log2 enrichment |
| --- | --- |
| CACAGACAACACGCACCCACACAGACACAGAGGGAAGGCGUUGGGAUGGGGACAGGGUGCACAGCAGGGCGGGGUAGGACCCCAGCCCCU | 1.19 |
| CCUGUGCUACACAUCGUAUGUACCGAAUCGGUUUUUUGGGGUUUUUUGGGGUUUUUUGGGAAAGUAUUAUGUUACGCCGUUCGGAUCUGC | -0.498 |
| UUAUGGAGUUUGGCCCUGAGGACAUGCUGCUGGGCAUGGAUGAGGCUGAAGAUGAUGAGGACCUGGAGGCUGAGCUGCUGGCUCUCACAG | -0.837 |
| CUGUGCUACACAUCGUAUGUACCGAAUCGGGUUUUUUUGGGUUUUUUUGGGUUUUUUUGGGGAAAGUAUUAUGUUACGCCGUUCGGAUCU | -0.174 |
| CCUCAAGUCCUGUGCUACACAUCGUAUGUACCGAAUCGGGGUGGUGGGUGGGAAAGUAUUAUGUUACGCCGUUCGGAUCUGCACUUCCAG | 1.4 |
| AGUCCUGUGCUACACAUCGUAUGUACCGAAUCGGGAAAAAAAGGGUGGGUUUUUGGGAAAGUAUUAUGUUACGCCGUUCGGAUCUGCACU | 0.51 |

Series 2
Target: Prothrombin, mature alpha-thrombin (F2, Homo sapiens, UniProt P00734)
Method: aptamer microarray, sandwich
Molecule type: DNA with 2'F-ANA
Sample: in vitro
Concentration: 200 nM
Notes: whole 15-mer aptamer, many near background
With: Cy3 exosite-II aptamer, 400 nM
Direction: higher = stronger binding
Strand: GGTTGGTGTGGTTGG
| Modification | mean fluorescence intensity |
| --- | --- |
| 2'F-ANA at 2 3 5 7 8 9 15 | 119 a.u. |
| 2'F-ANA at 2 4 5 6 8 10 13 14 | 47.5 a.u. |
| 2'F-ANA at 4 5 6 7 10 13 14 15 | 49.7 a.u. |
| 2'F-ANA at 1 2 3 4 7 9 12 13 15 | 280 a.u. |
| 2'F-ANA at 1 2 5 6 8 10 12 13 | 58.7 a.u. |
| 2'F-ANA at 1 2 4 5 6 7 9 12 15 | 89.5 a.u. |
| 2'F-ANA at 4 6 7 8 10 14 15 | 59.3 a.u. |
| 2'F-ANA at 1 2 3 5 6 8 11 12 14 | 49.9 a.u. |
| 2'F-ANA at 5 8 9 10 11 12 13 14 | 47.1 a.u. |
| 2'F-ANA at 3 7 10 12 14 | 548 a.u. |
| 2'F-ANA at 1 6 8 10 11 12 13 | 63.5 a.u. |
| 2'F-ANA at 2 3 8 13 15 | 691 a.u. |
| 2'F-ANA at 2 3 4 5 9 10 13 15 | 60.1 a.u. |
| 2'F-ANA at 1 5 8 10 11 12 15 | 45.5 a.u. |
| 2'F-ANA at 3 5 7 13 14 15 | 56.6 a.u. |
| 2'F-ANA at 3 4 5 8 9 12 13 14 15 | 51.1 a.u. |
| 2'F-ANA at 3 4 5 11 14 15 | 53.5 a.u. |
| 2'F-ANA at 2 3 5 6 7 9 10 13 14 15 | 50.3 a.u. |
| 2'F-ANA at 1 3 7 9 10 11 13 15 | 79.5 a.u. |
| 2'F-ANA at 1 3 4 6 8 9 11 | 230 a.u. |
| 2'F-ANA at 1 2 5 7 9 10 12 14 15 | 47.1 a.u. |
| 2'F-ANA at 3 5 7 8 9 10 11 15 | 59.8 a.u. |
| 2'F-ANA at 2 3 5 6 8 9 10 11 13 14 | 75.7 a.u. |

Series 3
Target: RNA binding protein fox-1 homolog 2, RRM domain, GST-SBP tag (RBFOX2, Homo sapiens, UniProt O43251-10, residues 100-194)
Method: RNA Bind-n-Seq
Molecule type: RNA
Sample: in vitro
Concentration: 365 nM
Notes: natural RNA segment, single round, ends assumed
Reference: no-protein control
Direction: higher = stronger binding
Constant ends, left off below: GGGAGUUCUACAGUCCGACGAUC … UGGAAUUCUCGGGUGCCAA
Residues (chain): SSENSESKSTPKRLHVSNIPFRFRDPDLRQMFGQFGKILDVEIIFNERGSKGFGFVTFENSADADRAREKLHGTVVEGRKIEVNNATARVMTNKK
| Strand | RBNS enrichment (R) |
| --- | --- |
| ACGUCUGACAAAUGUGUGUAUGUGCUUUGAGCACUGUGUACAUCUUAGGAUAAUGGUGGACAUUUCAGUGCAUGUUUAGCUAAUGAACUUAGUUUUCUUUGCCCUUUCCA | 0.913 |
| GAUUUUUUUCAUGUUUGUUUUAUCUGGGGGUUGUUCAUGAAACUGACAGAUGUUUUUCUAAAAAGGACUAUUAUCAGUUUCCAAAUACAAUACUUCUCUCUUCUGGUUUU | 0.614 |
| CAAGAAUUUCCCAGUCCCAGGCAGGGCAGGGGAAACUAAGGGCAAGCAGGAUACAGGGCGAGGGAUGUGGCAGGUGAGGGGGCUCCCGCCUGUGCCCCUUCUCCUCACCA | 1.49 |
| CCUUCUGUCUAGGUUCACUUGGUUUGUCAUCAGGAACUGAGCAGGUCCAGGACUCAGCUUUCUGCUUCAGCCUAAGCCAGUACUCCUUGUUUGAGGUAAAAGCCUUAAAA | 0.27 |
| GAGCUACUCCCAAUUCCACUCUUCUGUGAUUCUGGCUGAGCAAGUUCAUGCCGGUAGAGGCUCAUUAAGUGAGGUCCUGGGCACCCCCCAAACAGGAAGUGUUUUCAGGC | 0.239 |
| GAAAUUGCUGGAGCCGGCUCCAAGCAGAUAAUUCACUGGGGAGGUUUUCAGAGUCAAACAUCAUUCUGCCUGUGUUGGGGGCCAGGUGUGUCACACAAGCAUCUCAAAGU | 0.664 |
| UUCUCUUUCAUGAGGGUGGAACUUGCACAGAAAAGAAGAAUAAUCGCAAGAAGAGAUUUGGGCUUAACACUGGGUACUUUGUGGGUCUCUUUUGUGGAUGGCUUCAAGUA | 0.753 |
| GCGUGGAAUCACUUUCCAGGCCAGAGCCCUAGAGGGGUGCUGGUCUCCCUGCUUUGCUGUAUGGUGACCCCUAAUCCGCUUCUCUGGGCUCAGAUCUGUCCAAGGGCGGA | 0.332 |

Series 4
Target: Interferon regulatory factor 3, full length, phosphomimetic (IRF3, Homo sapiens, UniProt Q14653, residues 1-427, S386D/S396D/S398D/S402D/T404D/S405D)
Method: protein-binding microarray
Molecule type: double-stranded DNA, one strand shown
Sample: in vitro
Concentration: 2540 nM top
Notes: 60-bp whole probe
With: salmon DNA 0.4 mg/ml
Reference: random background probes
Direction: higher = stronger binding
Constant ends, left off below: GCCTAGCAC … GTCTTGATTCGCTTGACGCTGCTG
Construct (chain): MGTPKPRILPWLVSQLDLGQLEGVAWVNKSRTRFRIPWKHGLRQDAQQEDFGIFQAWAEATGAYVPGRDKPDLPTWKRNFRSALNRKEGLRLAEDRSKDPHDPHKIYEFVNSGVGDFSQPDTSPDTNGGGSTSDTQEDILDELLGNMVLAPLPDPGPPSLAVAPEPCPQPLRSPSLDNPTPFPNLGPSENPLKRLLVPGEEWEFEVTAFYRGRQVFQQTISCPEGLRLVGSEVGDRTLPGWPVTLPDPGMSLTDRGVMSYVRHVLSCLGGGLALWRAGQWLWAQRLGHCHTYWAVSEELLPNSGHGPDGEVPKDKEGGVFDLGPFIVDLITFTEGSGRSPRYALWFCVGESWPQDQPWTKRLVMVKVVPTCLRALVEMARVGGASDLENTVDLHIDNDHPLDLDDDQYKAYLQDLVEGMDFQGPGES
| Strand | fitted relative affinity [z-score] |
| --- | --- |
| TCATTTCTAAATTCCCTACTGTGCTAG | 2.87 |
| GCATTTTTCTAACCCATTGAGTGCTAG | 1.66 |
| TTCTGAATGCCCTCTAACTTCGTGCTA | -0.017 |
| TCAGCTTTCCTTCATGCACTGTGCTAG | 2.18 |
| TTAGAGTTCGGGTTTCGATTAGTGCTA | 1.79 |
| TTAGGTTCCGGTTTCTGTTAGTGCTAG | 5.98 |
| GTAGGTATCCTTCTCCTTTAGTGCTAG | 7.29 |
| TTAGTTATCGGGTATCGATTAGTGCTA | 0.839 |
| TTTTTTTTTTTTTTGGAATGGTGCTAG | 1.62 |
| TTTCATATATATATGAATATGTGCTAG | 3.12 |
| TTAGAACTGAGTTTCGATTCGTGCTAG | 4.06 |
| GTGTTTGTCCCTATTTAAGAGTGCTAG | 1.37 |
| GCTTCTACACAGAGCATGGGGTGCTAG | -0.0451 |
| GACGGTCCCGGTATCGGGACGTGCTAG | 0.818 |
| CACAGTTTGTAAATCTTTTTGTGCTAG | 0.554 |
| TTAGGTCTCCTTTTCCGTTAGTGCTAG | 4.57 |
| CCCTGTCTGTCCAGAAACCCGTGCTAG | 0.564 |
| CCAGTTGAGCACAGGAAAGTGTGCTAG | 0.116 |
| TTAGGACTGGACACTGTGTTAGTGCTA | -0.632 |

Repeated from above (series 1):
| Strand | log2 enrichment |
| --- | --- |
| CACAGACAACACGCACCCACACAGACACAGAGGGAAGGCGUUGGGAUGGGGACAGGGUGCACAGCAGGGCGGGGUAGGACCCCAGCCCCU | 1.19 |
| CCUGUGCUACACAUCGUAUGUACCGAAUCGGUUUUUUGGGGUUUUUUGGGGUUUUUUGGGAAAGUAUUAUGUUACGCCGUUCGGAUCUGC | -0.498 |
| UUAUGGAGUUUGGCCCUGAGGACAUGCUGCUGGGCAUGGAUGAGGCUGAAGAUGAUGAGGACCUGGAGGCUGAGCUGCUGGCUCUCACAG | -0.837 |
| CUGUGCUACACAUCGUAUGUACCGAAUCGGGUUUUUUUGGGUUUUUUUGGGUUUUUUUGGGGAAAGUAUUAUGUUACGCCGUUCGGAUCU | -0.174 |
| CCUCAAGUCCUGUGCUACACAUCGUAUGUACCGAAUCGGGGUGGUGGGUGGGAAAGUAUUAUGUUACGCCGUUCGGAUCUGCACUUCCAG | 1.4 |
| AGUCCUGUGCUACACAUCGUAUGUACCGAAUCGGGAAAAAAAGGGUGGGUUUUUGGGAAAGUAUUAUGUUACGCCGUUCGGAUCUGCACU | 0.51 |
